# Assay results from different studies.
# Protocols differ between the studies behind these lines. “And” joins repeats or separate records; there may be more than shown. pIC50: −log10 of the molar value.
# UCHL1: Ubiquitin carboxyl-terminal hydrolase isozyme L1 (UCHL1, Homo sapiens, UniProt P09936)
# Chain of UniProt P09936 (whole entry, looked up): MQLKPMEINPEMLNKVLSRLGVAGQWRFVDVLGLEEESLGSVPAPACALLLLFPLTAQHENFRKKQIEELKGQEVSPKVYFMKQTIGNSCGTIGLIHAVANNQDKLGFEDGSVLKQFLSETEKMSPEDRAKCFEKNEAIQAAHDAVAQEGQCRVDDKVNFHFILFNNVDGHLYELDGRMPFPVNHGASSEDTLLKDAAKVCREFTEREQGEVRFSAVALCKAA
SMILES,tested on,test,test system,conditions,scale,quantity,value
Cc1cc(C)n(C(=S)[S][Au][PH](CCCCCC[PH]([Au][S]C(=S)n2nc(C)cc2C)(c2ccccc2)c2ccccc2)(c2ccccc2)c2ccccc2)n1,Malme-3M,"cell growth, NCI-60 screen",,melanoma,,log TGI,> -4 log10 M
O=C1NCCc2[nH]c(-c3ccncc3)cc21,Malme-3M,"cytotoxicity, MTS",NCI60 panel,melanoma,,pIC50,5.52
O=C(Nc1nnc2n3c(=S)[nH][nH]c3nc(-c3ccc(Cl)cc3)c1-2)c1ccccc1,Malme-3M,SRB,,"10 µM, NCI60 single-dose screen",reference: untreated,cell growth,98.5%
O=C1NC(=NCc2cccs2)S/C1=C\c1ccc2ncccc2c1,Malme-3M,"cytotoxicity, MTS",NCI60 panel,melanoma,,pIC50,< 5.00
Cc1cc(-c2ccccc2)n(-c2nc(-c3ccc(Cl)cc3)c3c(NC(=O)c4ccccc4)nnc-3[nH]2)n1,Malme-3M,SRB,,"10 µM, NCI60 single-dose screen",reference: untreated,cell growth,97%
O=C(CCl)NSc1ccc([N+](=O)[O-])cc1,UCHL1,"covalent, intact protein LC-MS",,12.5 µM,,labelling,3.64%
CC(=O)c1cccc(CN2CCCC(CCC(=O)NCc3ccccc3F)C2)c1 (stereo not drawn),Trypanosoma cruzi,"reporter translation, Renilla luciferase mRNA translation",cell-free extract,40 µM,reference: DMSO,inhibition,-13.5%
Cn1ccc(NC(=O)C(C#N)=Cc2ncccc2C(F)(F)F)n1,UCHL1,"covalent, intact protein LC-MS",,12.5 µM,,labelling,26.4%
CCCCN1CCN(c2ccc3[nH]c(-c4ccc5[nH]c(-c6ccc(OCC)c(OCC)c6)nc5c4)nc3c2)CC1,Malme-3M,SRB,,"10 µM, 48 h",,growth percent,9.35%
C#C[C@@]1(O)[C@@H](CO)O[C@@H](n2cc(I)c3c(N)ncnc32)[C@@H]1O,Malme-3M,SRB,,NCI-60 screen,,TGI,2.76 µM and 4.16 µM
CCN(CC)c1ccc(C=NNC(=O)CSc2nc3ccccc3c(=O)n2Cc2ccc(S(N)(=O)=O)cc2)c(O)c1,Malme-3M,NCI five-dose screen,,,,TGI,> 100 µM
O=C(Nc1nnc2n3c(Cc4ccccc4)n[nH]c3nc(-c3ccc(Cl)cc3)c1-2)c1ccccc1,Malme-3M,SRB,,"10 µM, NCI60 single-dose screen",reference: untreated,cell growth,93.5%
C#C[C@@]1(O)[C@@H](CO)O[C@@H](n2ccc3c(N)ncnc32)[C@@H]1O,Malme-3M,SRB,,NCI-60 screen,,TGI,5.55 µM
CCCCN1CCN(c2ccc3nc(-c4ccc5nc(-c6cc(OC)ccc6OC)[nH]c5c4)[nH]c3c2)CC1,Malme-3M,SRB,,"10 µM, 48 h",,growth percent,119%
Cn1cncc1C1=CN(c2ncnc3[nH]cnc23)CCS1,Malme-3M,,,melanoma cell line,,GI50,19.1 µM
CCCCN1CCN(c2ccc3[nH]c(-c4ccc5[nH]c(-c6ccc(C(F)(F)F)cc6)nc5c4)nc3c2)CC1,Malme-3M,SRB,,"10 µM, 48 h",,growth percent,-74.2%
O=C(Nc1nnc2n3c(nc(-c4ccc(Cl)cc4)c1-2)SCC3=O)c1ccccc1,Malme-3M,SRB,,"10 µM, NCI60 single-dose screen",reference: untreated,cell growth,92.2%
CCCN1CCN(c2ccc3nc(-c4ccc5nc(-c6cc(OC)ccc6OC)[nH]c5c4)[nH]c3c2)CC1,Malme-3M,SRB,,"10 µM, 48 h",,growth percent,139%
CCOc1cc(CN2CCCC(CNC(=O)c3ccc(F)cc3)C2)ccc1OC (stereo not drawn),Trypanosoma cruzi,"reporter translation, Renilla luciferase mRNA translation",cell-free extract,40 µM,reference: DMSO,inhibition,3.4%
CCOC(=O)CSc1nc(-c2ccc(Cl)cc2)c2c(NC(=O)c3ccccc3)nnc-2[nH]1,Malme-3M,SRB,,"10 µM, NCI60 single-dose screen",reference: untreated,cell growth,85.1%
CCOc1ccc(-c2nc3cc(-c4nc5cc(N6CCN(C)CC6)ccc5[nH]4)ccc3[nH]2)cc1OCC,Malme-3M,SRB,,"10 µM, 48 h",,growth percent,-34.7%

# A few entries again:
SMILES,tested on,test,test system,conditions,scale,quantity,value
Cc1cc(C)n(C(=S)[S][Au][PH](CCCCCC[PH]([Au][S]C(=S)n2nc(C)cc2C)(c2ccccc2)c2ccccc2)(c2ccccc2)c2ccccc2)n1,Malme-3M,"cell growth, NCI-60 screen",,melanoma,,log TGI,> -4 log10 M
CC(=O)c1cccc(CN2CCCC(CCC(=O)NCc3ccccc3F)C2)c1 (stereo not drawn),Trypanosoma cruzi,"reporter translation, Renilla luciferase mRNA translation",cell-free extract,40 µM,reference: DMSO,inhibition,-13.5%
CCCCN1CCN(c2ccc3[nH]c(-c4ccc5[nH]c(-c6ccc(C(F)(F)F)cc6)nc5c4)nc3c2)CC1,Malme-3M,SRB,,"10 µM, 48 h",,growth percent,-74.2%
